# Assay results of several laboratories.
# Values joined by “and” are separate records of one study, mostly repeats; a detail may differ. Numbers after ± are the reported error.
SMILES,cell line,assay,system,conditions,scale,measurement,value
CC(=O)c1nn(-c2ccc(Cl)cc2)/c(=N/N=C(\C)c2ccc(NC(=O)c3ccc(C)cc3)cc2)s1,MCF7,,,0.078 µM,,toxicity,13.3%
Nc1ncnc2c1ncn2[C@@H]1O[C@H](CO)[C@@H](O)[C@H]1O,activated human T cells,,,10 µM,higher = more IFNγ,IFNγ production,328 a.u. and 353 a.u. and 423 a.u.
CCc1cnc(N2CCC(c3nc(COc4ccc(-n5cnnn5)cc4)cs3)CC2)nc1,HEK-293T,"RNA-seq GSEA, refers to: Hallmark cholesterol homeostasis",,concentration not given,direction not given,normalized enrichment score,2.08
C=C1C(=O)O[C@@H]2C[C@@]3(C)CCC[C@H](C)C3=C[C@H]12,human iPSC-derived cardiomyocytes,"MyBP-C/MYH ratio, plate-normalised SD score",,"concentration not given, primary screen",direction not given,activity score,5.8
CCOc1ccc(-c2nc3cc(-c4nc5cc(N6CCN(C)CC6)ccc5[nH]4)ccc3[nH]2)cc1OCC,M14,SRB,,"10 µM, 48 h",,growth percent,10%
c1ccc2[nH]ccc2c1,HCT-8,"RNA-seq, refers to: NTN5",,concentration not given,,"mRNA level, LS mean",6.12 counts per million
Clc1nc(NCc2ccco2)c2[nH]cnc2n1,FD iPSC-derived cardiomyocytes,"alternative splicing, RNA-seq, refers to: FAM184A exon chr6(-):118974427-118974574",,unit not given,reference: DMSO minus compound,ΔPSI,-0.307
Clc1ccc(C2(c3ccc(-c4cn[nH]c4)cc3)CCNCC2)cc1,primary CLL cells,flow cytometry,human,"10 µM, 24 h","reference: DMSO, higher = more protein",Bcl-2 MFI,3180 a.u.
C#CCOc1cc(C(=O)Nc2cc(OCCCN)c3ccccc3n2)nc(C(=O)Nc2cc(OCCCN)c3ccccc3n2)c1,U2OS,"cell viability, CellTiter-Glo",,72 h,reference: IC50 U2OS over WI-38,selectivity ratio,1.5
Cc1cc(N2CCN(c3ccc([N+](=O)[O-])c4cccnc34)CC2)c2ccccc2n1,C127 LDR GFP reporter cells,"silenced GFP reporter induction, activator, high-content imaging",,"retest, two-run mean",,efficacy,30%
CC/C(=N\NC(=O)NCc1cccc(O)c1)c1ccc(O)c(C)c1O,SK-OV-3,Western blot,3D culture in gellan gum,"5 µM, 1 h, unit not given",reference: β-actin,YAP protein level,0.98 ± 0.25
Cn1cc(Nc2nccc(-c3ccc4c(c3)CN(C3COC3)CC[C@H]4NC(=O)c3cn(C(C)(C)C)nn3)n2)cn1,mouse splenic B cells,refers to: Sirtuin signalling pathway,,"30 mg/kg, IgD-activated in vivo","reference: vehicle, direction not given",pathway activation z-score,0.87
COc1cnc2cccc(N3CCc4c(cc(Cn5ccnc5C)cc4-c4cn(C)nc4C(F)(F)F)C3=O)c2c1,HH,"cell growth, inhibitor",,120 h,,EC50,> 30 µM
O=C(Cn1c(=O)n(Cc2ccc(F)cc2)c(=O)c2sc3ccccc3c21)Nc1ccc(F)cc1F,C127 LDR GFP reporter cells,"silenced GFP reporter induction, activator, high-content imaging",,"retest, two-run mean",,efficacy,63%
CCn1cc(-c2cc(Cn3ccnc3)cc3c2CCN([C@H](c2cc(OC)ccn2)C2CC2)C3=O)c(C(F)(F)F)n1,OVISE,"cell growth, inhibitor",,120 h,,EC50,8.02 µM
Cc1n[nH]c2nc(-c3ccc(Cl)cc3)c3c(NC(=O)c4ccccc4)nnc-3n12,NCI60 cell panel,SRB,,10 µM,,mean growth percent,103%
CN(C)S(=O)(=O)c1cccc(NC(=S)N/N=C/c2ccco2)c1,C127 LDR GFP reporter cells,"silenced GFP reporter induction, activator, high-content imaging",,"retest, two-run mean",,efficacy,37%
Cc1ccc(CNC(=O)Cn2cc(CSc3nc4ccccc4[nH]3)nn2)cc1,Caco-2,MTT,,62.5 ppm,,viability,19%
COc1c(C)cnc(Cn2cc(C#CCCOP(=O)(O)O)c3c(Cl)nc(N)nc32)c1C,PBMC and cell lines,,,,,HSP70 upregulation duration,> 48 h
CSc1nc(-c2ccc(Cl)cc2)c2c(NC(=O)c3ccccc3)nnc-2[nH]1,NCI60 cell panel,SRB,,10 µM,,mean growth percent,93.2%
COC1=CC(=O)C=C(OC)C1=O,human iPSC-derived cardiomyocytes,"MyBP-C/MYH ratio, plate-normalised SD score",,"concentration not given, primary screen",direction not given,activity score,4.2
C=Cc1c2[n-]c(c1C)/C=c1\[n-]/c(c(C)c1C=C)=C\c1[n-]c(c(CCC(=O)O)c1C)/C=c1\[n-]c(c(C)c1CCC(=O)O)=C2.[Sn+4],SH-SY5Y,"RNA-seq, refers to: KLF6 mRNA",,"5 µM, 5 h",reference: untreated cells,fold change,1.91
COc1cccc2c1C(=O)c1c(O)c3c(c(O)c1C2=O)C[C@@](O)(C(=O)CO)C[C@@H]3O[C@H]1C[C@H](N)[C@H](O)[C@H](C)O1,HME1,WST-1,,"concentration not given, 72 h, highest tested concentration",,maximal cytotoxicity,96.1%
CCn1cc(-c2cc(Cn3ccoc3=N)cc3c2CCN([C@@H](C)c2cc(OC)ccn2)C3=O)c(C(F)(F)F)n1,KYM1,cell growth,,120 h,,EC50,4.78 µM
O=C(CCCSc1nc2ccccc2c(=O)[nH]1)Nc1ccc(F)cc1,"cells, COS-1, expressing proMMP-9","cell migration, 2D collagen dot migration",,"50 µM, 18 h",,inhibition,73 ± 2%
CCNC(=O)c1noc(-c2cc(C(C)C)c(O)cc2O)c1-c1ccc(CN2CCOCC2)cc1,human iPSC-derived cardiomyocytes,"MyBP-C/MYH ratio, plate-normalised SD score",,"concentration not given, primary screen",direction not given,activity score,3.7
Nc1cccc2c1C(=O)N(C1CCC(=O)NC1=O)C2=O (stereo not shown),bone marrow CD138+ myeloma cells,XTT,,"0.4 µM, phenol red-free RPMI",,viability,94%
CC1=CC(=O)C(C(C)C)=CC1=O,human iPSC-derived cardiomyocytes,"MyBP-C/MYH ratio, plate-normalised SD score",,"concentration not given, primary screen",direction not given,activity score,5.5
CCCCN1C[C@H](O)[C@@H](O)[C@@H](O)[C@H]1CO,sample B patient fibroblasts,"Gb3 level lowering, LC-MS/MS, refers to: Gb3 d18:1/24:0",,216 h,,IC50,13.5 µM
CC1=CC2C(CC1=O)C(C)=CCC2C(C)C (stereo not shown),human iPSC-derived cardiomyocytes,"MyBP-C/MYH ratio, plate-normalised SD score",,"concentration not given, primary screen",direction not given,activity score,3
COc1ccc(-c2cc(-c3ccccc3)nc(SCC(=O)Nc3nccs3)c2C#N)cc1,C127 LDR GFP reporter cells,"silenced GFP reporter induction, activator, high-content imaging",,"retest, two-run mean",,efficacy,42%
C#C[C@]1(O)CC[C@H]2[C@@H]3CCc4cc(OC5CCCC5)ccc4[C@H]3CC[C@@]21C,human iPSC-derived cardiomyocytes,"MyBP-C/MYH ratio, plate-normalised SD score",,"concentration not given, primary screen",direction not given,activity score,3.8
Cn1cc(-c2ccc(-c3cncc(Cl)c3N3CCC4(CCNC4=O)CC3)cc2)cn1,COLO 205,"gene expression, microarray, refers to: SGK1 mRNA",,"concentration not given, 6 h",reference: untreated cells,log2 fold change,4.59
CC1(C)CCC2=C(O1)c1ccccc1C(=O)C2=O,human iPSC-derived cardiomyocytes,"MyBP-C/MYH ratio, plate-normalised SD score",,"concentration not given, primary screen",direction not given,activity score,9.2
O=C(/C=C/C=C/C=C/C1CCCCC1)NC1=C[C@@](O)(/C=C/C=C/C=C/C(=O)NC2=C(O)CCC2=O)[C@@H]2O[C@@H]2C1=O,MDA-MB-436,"cell growth, CellTiter-Glo",,78 h,,GI50,11.2 µM
C=CCc1ccccc1OCC(O)CNC(C)C (stereo not shown),human iPSC-derived cardiomyocytes,"MyBP-C/MYH ratio, plate-normalised SD score",,"concentration not given, primary screen",direction not given,activity score,3.3
CNc1ncnc2c1c(-c1ccc3cc(OC4CC4)ccc3c1)nn2CC(C)(C)O,LNCaP and LNCaP-95,"mitochondrial respiration, Seahorse",,concentration not given,,oxygen consumption rate,no effect

# For quick reference, copied from above:
SMILES,cell line,assay,system,conditions,scale,measurement,value
O=C(Cn1c(=O)n(Cc2ccc(F)cc2)c(=O)c2sc3ccccc3c21)Nc1ccc(F)cc1F,C127 LDR GFP reporter cells,"silenced GFP reporter induction, activator, high-content imaging",,"retest, two-run mean",,efficacy,63%
CCn1cc(-c2cc(Cn3ccnc3)cc3c2CCN([C@H](c2cc(OC)ccn2)C2CC2)C3=O)c(C(F)(F)F)n1,OVISE,"cell growth, inhibitor",,120 h,,EC50,8.02 µM
Cc1n[nH]c2nc(-c3ccc(Cl)cc3)c3c(NC(=O)c4ccccc4)nnc-3n12,NCI60 cell panel,SRB,,10 µM,,mean growth percent,103%
CN(C)S(=O)(=O)c1cccc(NC(=S)N/N=C/c2ccco2)c1,C127 LDR GFP reporter cells,"silenced GFP reporter induction, activator, high-content imaging",,"retest, two-run mean",,efficacy,37%
Cc1ccc(CNC(=O)Cn2cc(CSc3nc4ccccc4[nH]3)nn2)cc1,Caco-2,MTT,,62.5 ppm,,viability,19%
COc1c(C)cnc(Cn2cc(C#CCCOP(=O)(O)O)c3c(Cl)nc(N)nc32)c1C,PBMC and cell lines,,,,,HSP70 upregulation duration,> 48 h
